Results collected from several papers.
Numbered parts are unrelated; each lists some results of a single study. Changes are numbered by the printed parent chain.
Chain of UniProt Q969T4 (whole entry, looked up): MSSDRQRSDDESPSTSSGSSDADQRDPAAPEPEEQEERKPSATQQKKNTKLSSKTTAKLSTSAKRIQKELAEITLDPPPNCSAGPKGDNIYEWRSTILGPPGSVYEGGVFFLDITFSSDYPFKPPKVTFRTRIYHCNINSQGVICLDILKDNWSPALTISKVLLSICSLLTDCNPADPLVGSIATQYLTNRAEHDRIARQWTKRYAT
Chain of UniProt Q9H832 (whole entry, looked up): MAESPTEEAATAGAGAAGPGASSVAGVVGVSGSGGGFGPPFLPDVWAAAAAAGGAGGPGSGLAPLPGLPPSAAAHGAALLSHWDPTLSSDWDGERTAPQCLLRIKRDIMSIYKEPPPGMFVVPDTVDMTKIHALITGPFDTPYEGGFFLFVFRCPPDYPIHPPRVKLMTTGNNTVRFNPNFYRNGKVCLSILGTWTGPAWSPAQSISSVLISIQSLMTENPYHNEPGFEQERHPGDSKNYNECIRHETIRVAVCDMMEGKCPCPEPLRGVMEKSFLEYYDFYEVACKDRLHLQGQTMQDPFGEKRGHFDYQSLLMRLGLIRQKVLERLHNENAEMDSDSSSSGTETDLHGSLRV
Chain of UniProt P63146 (whole entry, looked up): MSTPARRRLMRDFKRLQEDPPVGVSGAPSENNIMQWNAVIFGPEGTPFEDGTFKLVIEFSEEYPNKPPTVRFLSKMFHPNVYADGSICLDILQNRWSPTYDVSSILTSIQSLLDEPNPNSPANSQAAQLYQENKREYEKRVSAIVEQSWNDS
Chain of UniProt P61081 (whole entry, looked up): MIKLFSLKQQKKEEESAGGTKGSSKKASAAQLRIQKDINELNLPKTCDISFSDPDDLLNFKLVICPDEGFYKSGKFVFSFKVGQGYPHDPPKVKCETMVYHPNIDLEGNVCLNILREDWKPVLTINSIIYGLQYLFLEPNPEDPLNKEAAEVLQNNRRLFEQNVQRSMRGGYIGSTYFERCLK
Chain of UniProt Q9NPD8 (whole entry, looked up): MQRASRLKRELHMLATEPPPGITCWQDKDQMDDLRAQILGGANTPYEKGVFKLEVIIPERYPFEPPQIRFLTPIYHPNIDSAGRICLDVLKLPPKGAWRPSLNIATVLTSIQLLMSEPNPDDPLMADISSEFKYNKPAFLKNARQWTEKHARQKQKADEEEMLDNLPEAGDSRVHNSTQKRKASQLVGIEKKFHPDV
Chain of UniProt Q9Y385 (whole entry, looked up): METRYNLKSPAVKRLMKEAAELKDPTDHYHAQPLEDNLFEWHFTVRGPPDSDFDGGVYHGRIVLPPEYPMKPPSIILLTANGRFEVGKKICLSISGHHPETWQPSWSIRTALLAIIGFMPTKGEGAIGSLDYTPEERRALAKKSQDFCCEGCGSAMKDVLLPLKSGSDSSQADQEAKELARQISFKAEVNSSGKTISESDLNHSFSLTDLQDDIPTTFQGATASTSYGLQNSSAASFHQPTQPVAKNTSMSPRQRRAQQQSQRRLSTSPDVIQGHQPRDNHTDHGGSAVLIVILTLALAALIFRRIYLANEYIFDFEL
Chain of UniProt Q7Z7E8 (whole entry, looked up): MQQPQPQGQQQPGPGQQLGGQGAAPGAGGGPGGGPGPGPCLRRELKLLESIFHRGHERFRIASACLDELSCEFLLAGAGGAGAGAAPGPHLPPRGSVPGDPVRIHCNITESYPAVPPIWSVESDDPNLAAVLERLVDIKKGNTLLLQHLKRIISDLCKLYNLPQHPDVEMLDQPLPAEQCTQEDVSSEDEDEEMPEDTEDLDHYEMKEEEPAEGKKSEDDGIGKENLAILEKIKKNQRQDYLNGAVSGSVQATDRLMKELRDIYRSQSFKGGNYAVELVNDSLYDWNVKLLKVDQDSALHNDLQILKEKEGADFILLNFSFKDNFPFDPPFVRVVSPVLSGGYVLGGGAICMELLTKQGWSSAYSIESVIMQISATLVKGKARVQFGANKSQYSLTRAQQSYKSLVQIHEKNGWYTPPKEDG
Chain of UniProt P62253 (whole entry, looked up): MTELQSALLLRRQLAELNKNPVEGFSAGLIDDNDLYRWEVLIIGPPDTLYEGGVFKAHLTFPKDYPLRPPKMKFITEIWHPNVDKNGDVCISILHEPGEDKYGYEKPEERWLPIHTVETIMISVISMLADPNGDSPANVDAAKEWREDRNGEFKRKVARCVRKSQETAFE
Chain of UniProt P51668 (whole entry, looked up): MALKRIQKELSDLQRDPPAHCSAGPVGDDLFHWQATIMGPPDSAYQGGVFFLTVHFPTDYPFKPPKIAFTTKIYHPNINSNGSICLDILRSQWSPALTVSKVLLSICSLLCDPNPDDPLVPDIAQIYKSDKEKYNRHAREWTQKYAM
Chain of UniProt Q9C0C9 (whole entry, looked up): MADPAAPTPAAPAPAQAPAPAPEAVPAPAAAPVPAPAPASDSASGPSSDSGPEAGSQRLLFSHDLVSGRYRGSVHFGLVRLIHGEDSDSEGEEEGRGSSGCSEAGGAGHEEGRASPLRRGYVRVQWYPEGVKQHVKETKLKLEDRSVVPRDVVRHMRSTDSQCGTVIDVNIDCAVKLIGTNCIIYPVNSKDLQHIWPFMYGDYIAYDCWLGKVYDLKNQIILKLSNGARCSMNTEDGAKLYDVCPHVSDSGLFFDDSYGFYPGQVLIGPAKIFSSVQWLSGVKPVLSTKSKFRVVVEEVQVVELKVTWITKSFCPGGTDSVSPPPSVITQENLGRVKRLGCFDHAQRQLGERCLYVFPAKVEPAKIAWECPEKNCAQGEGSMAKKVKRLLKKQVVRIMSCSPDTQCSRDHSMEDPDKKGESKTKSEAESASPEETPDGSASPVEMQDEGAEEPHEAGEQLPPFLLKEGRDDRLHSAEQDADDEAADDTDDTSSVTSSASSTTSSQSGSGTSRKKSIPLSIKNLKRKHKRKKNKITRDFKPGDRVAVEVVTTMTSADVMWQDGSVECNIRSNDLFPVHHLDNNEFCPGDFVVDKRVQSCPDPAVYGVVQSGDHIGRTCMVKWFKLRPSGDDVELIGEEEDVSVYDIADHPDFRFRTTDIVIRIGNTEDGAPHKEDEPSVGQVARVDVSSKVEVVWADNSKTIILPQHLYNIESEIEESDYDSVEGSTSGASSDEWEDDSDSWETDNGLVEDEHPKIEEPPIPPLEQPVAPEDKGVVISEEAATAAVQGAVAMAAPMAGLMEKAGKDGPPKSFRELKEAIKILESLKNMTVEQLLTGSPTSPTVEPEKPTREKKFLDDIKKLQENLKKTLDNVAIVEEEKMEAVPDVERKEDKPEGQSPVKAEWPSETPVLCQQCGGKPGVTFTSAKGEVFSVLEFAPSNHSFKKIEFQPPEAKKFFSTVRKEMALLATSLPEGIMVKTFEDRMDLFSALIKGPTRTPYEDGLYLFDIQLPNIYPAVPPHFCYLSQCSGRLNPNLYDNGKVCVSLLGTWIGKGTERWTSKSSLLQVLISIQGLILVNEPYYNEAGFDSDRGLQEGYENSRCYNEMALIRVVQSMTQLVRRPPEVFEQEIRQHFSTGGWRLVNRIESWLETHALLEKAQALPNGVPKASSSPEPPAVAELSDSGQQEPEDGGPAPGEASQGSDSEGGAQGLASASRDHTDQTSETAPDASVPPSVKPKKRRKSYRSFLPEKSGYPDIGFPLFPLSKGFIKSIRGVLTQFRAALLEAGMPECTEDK
Chain of UniProt Q8N2K1 (whole entry, looked up): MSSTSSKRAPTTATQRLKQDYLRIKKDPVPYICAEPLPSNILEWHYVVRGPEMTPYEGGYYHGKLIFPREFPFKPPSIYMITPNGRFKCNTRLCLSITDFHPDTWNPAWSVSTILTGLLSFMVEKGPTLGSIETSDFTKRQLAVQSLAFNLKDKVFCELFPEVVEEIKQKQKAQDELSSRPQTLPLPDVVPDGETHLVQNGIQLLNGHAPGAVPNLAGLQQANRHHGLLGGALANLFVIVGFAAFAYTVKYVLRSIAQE
Chain of UniProt Q712K3 (whole entry, looked up): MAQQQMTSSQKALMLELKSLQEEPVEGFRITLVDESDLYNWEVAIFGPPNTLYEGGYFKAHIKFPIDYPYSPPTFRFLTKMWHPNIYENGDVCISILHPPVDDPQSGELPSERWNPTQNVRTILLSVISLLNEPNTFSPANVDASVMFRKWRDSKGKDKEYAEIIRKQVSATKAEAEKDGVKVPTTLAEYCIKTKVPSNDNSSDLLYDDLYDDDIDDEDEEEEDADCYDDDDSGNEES
Chain of UniProt P68036 (whole entry, looked up): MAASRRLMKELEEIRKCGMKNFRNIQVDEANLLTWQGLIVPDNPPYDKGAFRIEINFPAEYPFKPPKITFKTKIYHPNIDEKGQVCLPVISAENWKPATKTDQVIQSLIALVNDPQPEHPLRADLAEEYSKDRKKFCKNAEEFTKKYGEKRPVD

Study 1
Target: ABI1, truncated, D143A, DHFR fusion (Arabidopsis thaliana)
Method: DHFR PCA, deep sequencing
Medium: yeast
Setting: methotrexate growth selection, single substitutions
Added: (+)-ABA 0 µM
Relative to: wild-type fitted maximum
Direction: higher = stronger binding
Parent: PYL1, truncated, DHFR fusion (Arabidopsis thaliana); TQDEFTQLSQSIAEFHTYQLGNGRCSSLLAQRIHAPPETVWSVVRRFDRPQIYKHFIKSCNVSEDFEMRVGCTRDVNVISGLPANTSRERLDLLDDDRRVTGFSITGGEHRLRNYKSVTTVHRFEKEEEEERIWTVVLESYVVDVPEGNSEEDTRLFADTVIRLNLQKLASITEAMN; partner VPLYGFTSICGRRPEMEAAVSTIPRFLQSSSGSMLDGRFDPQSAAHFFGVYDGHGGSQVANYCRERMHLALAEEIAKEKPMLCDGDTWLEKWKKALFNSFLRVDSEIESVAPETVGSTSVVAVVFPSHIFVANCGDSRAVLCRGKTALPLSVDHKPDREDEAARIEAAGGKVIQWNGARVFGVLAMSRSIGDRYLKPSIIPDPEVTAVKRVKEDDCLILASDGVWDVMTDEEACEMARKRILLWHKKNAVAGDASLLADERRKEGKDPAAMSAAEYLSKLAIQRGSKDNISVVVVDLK
Substitution | relative binding score [%]
K116R | 39.5
P37V | 15.3
P37E | -3.27
V137D | 3.76
W134R | 4.8
G107N | 11.4
G21C | 12.2
K168R | 22.2
T119H | -2.52
A175P | 7.65
A13F | 5.66
Q10P | 25.8
V100T | -4.52
E4V | 23.9
F157C | 8.16
R69K | 53.3
K54E | 1.11
N165Q | 7.01
E130C | 20.1
G23V | 1.74
R74C | 1.13
N165K | 4.01
Q10G | 30.1
D75K | 10.2
P36A | 8.53

Study 2
Sequence: B1 (RNF24 RING domain)
Method: yeast two-hybrid
Medium: yeast
Setting: mostly zero background
Relative to: not given
Direction: higher = stronger interaction
B1: RNF24 RING domain (UniProt Q9Y225); chain KVKELNLHELCAVCLEDFKPRDELGICPCKHAFHRKCLIKWLEVRKVCPLCNMPVLQLAQLH
target | lacZ reporter activity
UBE2D1 UBC core domain (UniProt P51668) | 0
UBE2T UBC core domain (UniProt Q9NPD8) | 0
UBE2L3 UBC core domain (UniProt P68036) | 0
UBE2I UBC core domain (UniProt P63279) | 0
UBE2J2 UBC core domain (UniProt Q8N2K1) | 0
UBE2J1 UBC core domain (UniProt Q9Y385) | 0
UBE2Q1 UBC core domain (UniProt Q7Z7E8) | 0
UBE2R2 UBC core domain (UniProt Q712K3) | 0
UBE2O UBC core domain (UniProt Q9C0C9) | 0
UBE2G1 UBC core domain (UniProt P62253) | 0
UBE2E3 UBC core domain (UniProt Q969T4) | 0
UBE2Z UBC core domain (UniProt Q9H832) | 0
UBE2M UBC core domain (UniProt P61081) | 0
UBE2B UBC core domain (UniProt P63146) | 0
BIRC6 UBC core domain (UniProt Q9NR09) | 0

Study 3
Target: CCNE1, cyclin fold, Cln2 fusion (human)
Method: yeast growth competition, sequencing
Medium: yeast
Setting: strong parent motif
Relative to: not given
Direction: higher = stronger binding
Parent: PKMYT1 docking peptide (human); SFEPRNLLSLFED; partner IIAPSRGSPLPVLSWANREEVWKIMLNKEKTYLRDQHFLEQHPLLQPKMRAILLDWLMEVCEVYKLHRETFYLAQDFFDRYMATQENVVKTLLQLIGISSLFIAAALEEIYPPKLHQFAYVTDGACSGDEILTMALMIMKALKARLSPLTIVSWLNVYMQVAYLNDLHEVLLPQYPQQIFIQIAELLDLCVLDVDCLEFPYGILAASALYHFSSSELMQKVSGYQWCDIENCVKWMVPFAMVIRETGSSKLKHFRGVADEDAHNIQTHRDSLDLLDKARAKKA
Substitution | normalised enrichment score
SFEARNLLSLFED [P4A] | 1.4
SFEPRNLLLLFED [S9L] | 1.74
SFEPRVLLSLFED [N6V] | 1.16
SEEPRNLLSLFED [F2E] | -0.031
SFEPRNLLSLLED [F11L] | 1.14
SFEPKNLLSLFED [R5K] | 2.12
SDEPRNLLSLFED [F2D] | 1
SFEPRNHLSLFED [L7H] | 0.708
SFEPRNLLSLIED [F11I] | 0.572
SYEPRNLLSLFED [F2Y] | 1.42
SKEPRNLLSLFED [F2K] | -0.238
SFEPRNLLSLFLD [E12L] | 1.45
SFEPRNLLSLFEK [D13K] | 1.46
WFEPRNLLSLFED [S1W] | 1.84
SFEGRNLLSLFED [P4G] | 0.738
SFEPRNLCSLFED [L8C] | 0.4
SFEPRNLGSLFED [L8G] | -0.233
SFEPRNDLSLFED [L7D] | 0.689
SFEPRNLLSLWED [F11W] | 1.83
SFEPRCLLSLFED [N6C] | 2.07
SFEPLNLLSLFED [R5L] | 1.34
SFYPRNLLSLFED [E3Y] | 2.43
SGEPRNLLSLFED [F2G] | 1.12
SFEPRNLLSLFSD [E12S] | 1.53
SFSPRNLLSLFED [E3S] | 1.84

Study 4
Target: RNA binding protein fox-1 homolog 2, RRM domain, GST-SBP tag (RBFOX2, Homo sapiens, UniProt O43251-10, residues 100-194)
Method: RNA Bind-n-Seq
Molecule type: RNA
Medium: in vitro
Concentration: 365 nM
Setting: natural RNA segment, single round, ends assumed
Relative to: no-protein control
Direction: higher = stronger binding
All sequences stand within: GGGAGUUCUACAGUCCGACGAUC … UGGAAUUCUCGGGUGCCAA
Construct (chain): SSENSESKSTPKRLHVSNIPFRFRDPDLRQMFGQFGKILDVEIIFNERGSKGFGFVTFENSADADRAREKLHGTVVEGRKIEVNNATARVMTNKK
Strand | RBNS enrichment (R)
AGCAGAAGGUCAGGAUAGCAUGAGAUAGUCUCAAUGUGGCCAACCAAAAGGACAAAACUGACAGGAAUGCACAUUCGAUUUUCAAGCCCUCCAGAGCUUGAACAACAACU | 3.76
UCUACCGCAGGCGUCCAGCCAGGAAAGAGCGACCCCCCUCUUGGACUGUCUUCUGGGCCCUUCCAAGCCCAUCUGUGGAGUCGCCUCCCUCCUUCCCCCCACCCCCGUGU | 0.422
CUCCAUGAAAUUCCGUUUCCUCUGUUAACCGUCACUGAGCACUCUUCCUCGGGGCUCUCUGCUGCUCUACCAAUUGUGUUGCUUUCCACUUCUUCAGUGAUUCUUCAGUG | 0.266
AUUUUCCCAGUAUCUCCAGGCCUUCCUUAGUCUGUCCCACCGUGCAUCUGCUUACCUCAUGGCGCUGUUUGUUUCAGAUUUUGAAAGCUCACAGGUGUUUGUUGGAAUCA | 1.35
UCAGAUGCAGUGAGGAGCACUGAGUCCUUUGCAAUGUUUUCAGCCAUAGACCUUUGGGUCUGCCUGGACUGUAUGUGGAUGUGUGCGUGUGUUGUGACACGGGACAACAC | 0.675
GAGGAAAAAAAAAACCCUCUAGAAAAACAAAAAUGAAGACAGGAUCUCAUGUAUCGUAGAUUGGCCUUUAAGUCACUUUACCAAGGAUGAUCUUUGAACUCCUGAGUACA | 0.377
CUCCCCUUGUUCUUGGGGGGAAAGGAAGGAGACUUCUGCUGUUGCAGUGAGCCCAGAGUGGAUUGGCAUUAAACUGGCUGCUUUGACACACCUCAUCUCACCCAAGAGUA | 0.315
GAGACACGGGGAUUUGGGGUUCUCUGCUUGAAUGUCUUCUCCUUUACCACCUCACCUUGUUGGUACCUCCCUCCCUGGAUCUCUGAGCCAGCAGCCAGGAGGACCUGACC | 0.628
ACAUUUUUGUUACUAGUGCCUAGAACAUAGUAGGUGCUCAAUAAAUACACAUGGAGUAAUUGAAUGACUUUCUCUUUUGGCAUCUGUAUGUGCAGAAUACUCAACAAUGU | 0.373
CUCGCCAAGUUGAAGAGUCAAGUGCAGCCCCAGUGAAUUUCUUGUAAUGCAGCUUCCACUCCUCUCAUUGGAGGCCCUAUUUGGGAACACUGCAAGCCCUUAAUCAGCCC | 0.348
CAUUGCCUACAGUGAUGAAAGCGUCUAUGGUCUUGAAGCUGCUGUACCUGAGGUGGGGGGUUCCAUUCUACGAAGAGAGGUGGCGCUCCUUCCUUGACAUCCAGUUCCUC | 0.225
ACAGCUGCUCUCCUGCGCCCAGCUUCACAGGCAGCCCUGCCCCUUUCUCCUCACCAGCAUGGUACCUGCCCUUACUGCUAGAGCAGCUGCUUGUAGAGGGACAUUCCCUC | 0.797

A few entries again (study 1):
Substitution | relative binding score [%]
V137D | 3.76
W134R | 4.8
G107N | 11.4
G21C | 12.2
K168R | 22.2
T119H | -2.52
A175P | 7.65
A13F | 5.66
Q10P | 25.8
V100T | -4.52
E4V | 23.9
F157C | 8.16
